Results pooled from the literature.
Every numbered part comes from another study and shows a few of its results, in no order.

Series 1 — technique: protein-binding microarray; form: double-stranded DNA, one strand shown; sample: in vitro; tested at: 0.8 µM; notes: whole 60-bp probe, no competitor; direction: higher = stronger binding
Target: Centromere-binding protein 1, full length, N-terminal tag (CBF1, Saccharomyces cerevisiae, UniProt P17106, residues 1-351)
Chain of UniProt P17106 (whole entry, looked up): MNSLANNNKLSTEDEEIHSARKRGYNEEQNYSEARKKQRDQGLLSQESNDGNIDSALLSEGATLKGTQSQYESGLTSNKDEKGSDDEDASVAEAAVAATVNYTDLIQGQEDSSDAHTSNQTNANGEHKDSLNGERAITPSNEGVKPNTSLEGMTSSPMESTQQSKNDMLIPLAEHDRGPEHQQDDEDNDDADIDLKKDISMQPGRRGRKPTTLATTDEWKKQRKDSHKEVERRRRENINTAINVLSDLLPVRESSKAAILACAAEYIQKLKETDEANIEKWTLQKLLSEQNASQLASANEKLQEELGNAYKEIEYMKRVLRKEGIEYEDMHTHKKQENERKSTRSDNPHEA
Sequence | fluorescence intensity [a.u.]
GAATCTGACAACGACCACGATTCCCCCGACAATTAGGTCTTGATTCGCTTGACGCTGCTG | 489
CTAGGACCCATACATCAGGCACTTACCCCCAGGTTCGTCTTGATTCGCTTGACGCTGCTG | 480
GAATTTTCATGATGACTGGTGACTGTTTCTCAATAGGTCTTGATTCGCTTGACGCTGCTG | 554

Series 2 — technique: protein-binding microarray; form: double-stranded DNA, one strand shown; sample: in vitro; tested at: 250 nM; notes: 60-bp whole probe; added: salmon DNA 0.4 mg/ml; relative to: random background probes; direction: higher = stronger binding; constant ends, left off below: GCCTAGCACT … GTCTTGATTCGCTTGACGCTGCTG
Target: Interferon regulatory factor 5, full length, phosphomimetic (IRF5, Homo sapiens, UniProt Q13568-2, residues 1-514, K96S/S451D/S453D/S456D/S462D)
Sequence | log fluorescence
TAGATCTCACTCTCGATTAGTGCTAG | 1.07 z-score
CAGTTACCCATCTCAAACTGTGCTAG | 0.156 z-score
TAGGACTGCATTTCCTTTAGTGCTAG | 0.0351 z-score
CAACTAGGAGTTTTCAGACTGTGCTA | 0.181 z-score
GAGGACTGCTTTTCCTTTAGTGCTAG | -0.0489 z-score
TAGGTCTCGGTATCGGTTTGTGCTAG | 4.95 z-score

Series 3 — technique: RNA Bind-n-Seq; form: RNA; sample: in vitro; tested at: 365 nM; relative to: no-protein control; direction: higher = stronger binding
Target: RNA binding protein fox-1 homolog 2, RRM domain, GST-SBP tag (RBFOX2, Homo sapiens, UniProt O43251-10, residues 100-194)
Notes: natural RNA segment, single round, ends assumed
Sequence | RBNS enrichment (R)
GGGAGUUCUACAGUCCGACGAUCCUAAAGACGAUUUUUGAGCAUCCCACUGGGAUUAUUUAAUUUUUCUUUUUGACGUGUGUUUUUAGUUUAGAAGUGCUGUAUUCCACAAGGUUUAAGUCAGUGAGGUUGGAUGGAAUUCUCGGGUGCCAA | 0.761
GGGAGUUCUACAGUCCGACGAUCCGUACACAUGGUUAAAGAGCAGUGCACACACUAUCGAGGUGAUGGCGGCCAAGACUCCAGAAUCUCUGUGGGUGGAUCAUCCUCCUUGGGAGGCAUGUGCCUUGGGAAAAUGGAAUUCUCGGGUGCCAA | 0.901
GGGAGUUCUACAGUCCGACGAUCUGACUGUGUUUUAAAAUUCUCUUUCUAAACACAGAGUGUUGGGCCUGGUUUGUUUCUGACAAAGUUACAGUCCUGGGCCUGUAAUGAAUGUCGGCGGCGCUGGGGUUGCAUGGAAUUCUCGGGUGCCAA | 12.2

Single results of other studies
Molecule | target | test | system | conditions | scale | measurement | result
PhoQ, residues 284 288 289 292 302 303 AAQSYM | PhoP, residues 12 14 15 18 19 LHATL (Escherichia coli, UniProt P23836) | Sort-seq, refers to: YFP reporter | E. coli | PhoQ-PhoP variant library, added: 10 µM Mg2+ | relative to: high Mg2+ state, higher = stronger signaling | fold induction | 19.7

Excerpt of the above (series 2):
Sequence | log fluorescence
CAGTTACCCATCTCAAACTGTGCTAG | 0.156 z-score
TAGGACTGCATTTCCTTTAGTGCTAG | 0.0351 z-score
